Assay results pooled from the literature.
Each line is one published result; not all experiments were run side by side. “And” joins repeats or separate records; there may be more than shown.
Cell line: LOX IMVI

SMILES | effect on | method | concentration | time | notes | measurement | value
CCCCN1CCN(c2ccc3[nH]c(-c4ccc5[nH]c(-c6ccc(OCC)c(OCC)c6)nc5c4)nc3c2)CC1 | cell growth | NCI-60 SRB | 10 µM | 48 h |  | growth percent | -82%
Cc1cc(C)n(-c2nc(-c3ccc(Cl)cc3)c3c(NC(=O)c4ccccc4)nnc-3[nH]2)n1 |  | NCI60 SRB | 10 µM |  |  | growth percent | 102%
COc1ccc(OC)c(-c2nc3ccc(-c4nc5ccc(N6CCN(C)CC6)cc5[nH]4)cc3[nH]2)c1 | cell growth | NCI-60 SRB | 10 µM | 48 h |  | growth percent | 98%
Cc1cc(=O)[nH]c(=O)n1Cc1cn(-c2cc3ccccc3oc2=O)nn1 |  | NCI60 single dose | 10 µM |  |  | growth | 95.7%
Cc1cc(=O)[nH]n1-c1nc(-c2ccc(Cl)cc2)c2c(NC(=O)c3ccccc3)nnc-2[nH]1 |  | NCI60 SRB | 10 µM |  |  | growth percent | 86.8%
O=c1ccn(Cc2cn(-c3cc4ccccc4oc3=O)nn2)c(=O)[nH]1 |  | NCI60 single dose | 10 µM |  |  | growth | 97.6%
S=C([S][Au-][P+](CCCCCC[P+]([Au-][S]C(=S)n1cccn1)(c1ccccc1)c1ccccc1)(c1ccccc1)c1ccccc1)n1cccn1 | cell growth | NCI-60 screen |  |  | melanoma | log10 TGI | > -4
C#C[C@@]1(O)[C@@H](CO)O[C@@H](n2ccc3c(N)ncnc32)[C@@H]1O | cell growth | SRB |  |  |  | TGI | 2050 nM
CCCCN1CCN(c2ccc3[nH]c(-c4ccc5[nH]c(-c6cc(OC)c(OC)c(OC)c6)nc5c4)nc3c2)CC1 | cell growth | NCI-60 SRB | 10 µM | 48 h |  | growth percent | 40.7%
O=c1ccn(Cc2cn(-c3c4ccccc4nc4ccccc34)nn2)c(=O)[nH]1 |  | NCI60 single dose | 10 µM |  |  | growth | 74.2%
O=C(Nc1nnc2n3c(Cc4ccccc4)n[nH]c3nc(-c3ccc(Cl)cc3)c1-2)c1ccccc1 |  | NCI60 SRB | 10 µM |  |  | growth percent | 120%
O=C1NC(c2ccccc2)(c2ccccc2)C(=O)N1Cc1cn(-c2cc3ccccc3oc2=O)nn1 |  | NCI60 single dose | 10 µM |  |  | growth | 92.2%
CCCCN1CCN(c2ccc3nc(-c4ccc5nc(-c6cc(OC)ccc6OC)[nH]c5c4)[nH]c3c2)CC1 | cell growth | NCI-60 SRB | 10 µM | 48 h |  | growth percent | 96.5%
CCn1cc(-c2cc(Cn3ccnc3)cc3c2CCN([C@H](c2cc(OC)ccn2)C2CC2)C3=O)c(C(F)(F)F)n1 | cell growth |  |  | 120 h |  | EC50 | > 30000 nM
C#C[C@@]1(O)[C@@H](CO)O[C@@H](n2cc(Cl)c3c(N)ncnc32)[C@@H]1O | cell growth | SRB |  |  |  | TGI | 226 nM and 284 nM
O=C(Nc1nnc2n3c(=S)[nH][nH]c3nc(-c3ccc(Cl)cc3)c1-2)c1ccccc1 |  | NCI60 SRB | 10 µM |  |  | growth percent | 111%
CCCCN1CCN(c2ccc3[nH]c(-c4ccc5[nH]c(-c6ccc(OCC)cc6)nc5c4)nc3c2)CC1 | cell growth | NCI-60 SRB | 10 µM | 48 h |  | growth percent | -81%
NNc1nc(-c2ccc(Cl)cc2)c2c(NC(=O)c3ccccc3)nnc-2[nH]1 |  | NCI60 SRB | 10 µM |  |  | growth percent | 114%
CCCCN1CCN(c2ccc3[nH]c(-c4ccc5[nH]c(-c6ccc(C(F)(F)F)cc6)nc5c4)nc3c2)CC1 | cell growth | NCI-60 SRB | 10 µM | 48 h |  | growth percent | -89.5%
CCN(CC)c1ccc(C=NNC(=O)CSc2nc3ccccc3c(=O)n2Cc2ccc(S(N)(=O)=O)cc2)c(O)c1 | cell growth |  |  |  | NCI five-dose screen | TGI | 10500 nM
COc1cnc2cccc(N3CCc4c(cc(Cn5ccnc5C)cc4-c4cn(C)nc4C(F)(F)F)C3=O)c2c1 | cell growth |  |  | 120 h |  | EC50 | 4320 nM

Excerpt of the above:
SMILES | effect on | method | concentration | time | notes | measurement | value
C#C[C@@]1(O)[C@@H](CO)O[C@@H](n2cc(Cl)c3c(N)ncnc32)[C@@H]1O | cell growth | SRB |  |  |  | TGI | 226 nM and 284 nM
O=C(Nc1nnc2n3c(=S)[nH][nH]c3nc(-c3ccc(Cl)cc3)c1-2)c1ccccc1 |  | NCI60 SRB | 10 µM |  |  | growth percent | 111%
CCCCN1CCN(c2ccc3[nH]c(-c4ccc5[nH]c(-c6ccc(OCC)cc6)nc5c4)nc3c2)CC1 | cell growth | NCI-60 SRB | 10 µM | 48 h |  | growth percent | -81%
